Measurements collected from several papers.
rep papain-like protease: Replicase polyprotein 1ab, papain-like protease (rep, Porcine epidemic diarrhea virus, UniProt P0C6Y4)
SLC6A2: Sodium-dependent noradrenaline transporter (SLC6A2, Homo sapiens, UniProt P23975)
AMY2: Pancreatic alpha-amylase (AMY2, Sus scrofa, UniProt P00690)
SLC22A11: Solute carrier family 22 member 11 (SLC22A11, Homo sapiens, UniProt Q9NSA0)
PIP4K2C: Phosphatidylinositol 5-phosphate 4-kinase type-2 gamma (PIP4K2C, Homo sapiens, UniProt Q8TBX8)
rep main protease: Replicase polyprotein 1ab, main protease (rep, Porcine epidemic diarrhea virus, UniProt P0C6Y4)
CDK7 with cyclin H: Cyclin-dependent kinase 7, with cyclin H (CDK7, Homo sapiens, UniProt P50613)
NT5E: 5'-nucleotidase (NT5E, Homo sapiens, UniProt P21589)

COc1cc(CNC(=O)c2cccc3ccccc23)cc(Br)c1OC
inhibition (rep papain-like protease; enzyme activity, inhibitor, FRET; 10 µM): 17.2%

CCOC(=O)[C@@]12C[C@@H]1[C@@H](n1cnc3c(Nc4ccccc4)nc(I)nc31)[C@H](O)[C@@H]2O
inhibition (SLC6A2; ligand displacement, radioligand; 10 µM): 23%

COc1cc2c(cc1OC)C(=O)N(CC1CCNC1)C2 (stereo not shown)
inhibition (Acetylcholinesterase (ache, Electrophorus electricus, UniProt O42275); enzyme activity, inhibitor; 1 µM): -2.36%

O=c1cc(-c2ccccc2)oc2cc(O)c(O)c(O)c12
inhibition (AMY2; enzyme activity, inhibitor; 50 µM, 30 min): 63.8%

C[C@H]1O[C@H](O[C@H]2[C@H](O)[C@@H](O)[C@@H](O[C@H]3[C@H](O)[C@@H](O)C(O)O[C@@H]3CO)O[C@@H]2CO)[C@H](O)[C@@H](O)[C@@H]1N[C@H]1C=C(CO)[C@@H](O)[C@H](O)[C@H]1O (stereo partly shown)
inhibition (Pancreatic alpha-amylase (Homo sapiens, UniProt P04746); enzyme activity, inhibitor; 100 µg/mL): 90.3%

COC(=O)/C(=C1/OC(=O)C(c2ccccc2)=C1O)c1ccccc1
inhibition (SLC22A11; transporter uptake, inhibitor; 25 µM): 84.7%

COc1ccc(C(=O)NCc2ccc(OC)c(OC)c2)cc1
inhibition (rep papain-like protease; enzyme activity, inhibitor, FRET; 10 µM): 55.4%

CCCn1cnc2ccc(-c3ccc(NC(=O)CC4CC4)nc3)cc2c1=O
inhibition (PIP4K2C; binding, competition with immobilised ligand; 0.5 µM): 99.5%

COc1cc(CNC(=O)c2nccs2)cc(Br)c1OC
inhibition (rep main protease; enzyme activity, inhibitor, FRET; 10 µM): 0.51%

CC[C@H](C)[C@H](NC(=O)[C@H](CCC(N)=O)NC(=O)[C@@H](NC(=O)[C@H](CCSC)NC(=O)[C@H](CCCCN)NC(=O)[C@H](CO)NC(=O)[C@@H](NC(=O)[C@H](CCSC)NC(=O)[C@H](CC(C)C)NC(=O)[C@H](CC(N)=O)NC(=O)[C@@H](NC(=O)[C@@H](NC(=O)[C@H](CO)NC(=O)[C@H](CC(C)C)NC(=O)[C@H](C)NC(=O)[C@H](CCCNC(=N)N)NC(=O)[C@H](CCC(=O)O)NC(=O)[C@H](Cc1ccc(O)cc1)NC(=O)[C@H](Cc1ccccc1)NC(=O)[C@H](C)NC(=O)[C@H](CC(N)=O)NC(=O)[C@@H](N)CCCCN)[C@@H](C)CC)[C@@H](C)CC)[C@@H](C)O)C(C)C)C(=O)N[C@@H](CC(N)=O)C(=O)N[C@H](C(=O)O)C(C)C
inhibition (Cyclin-dependent kinase 5, with p35 (CDK5, Homo sapiens, UniProt Q00535); enzyme activity, inhibitor, radiometric; 50 µM): 35%

COc1ccc(C(=O)NCc2cc(O)c(O)c(Br)c2)cc1
inhibition (rep papain-like protease; enzyme activity, inhibitor, FRET; 10 µM): 97.9%

CC(C)=CC[C@H]1C[C@@]23C[C@@H](CC=C(C)C)C(C)(C)[C@@](CC=C(C)C)(C(=O)C(C(=O)c4ccc(O)c(O)c4)=C2OC1(C)C)C3=O
inhibition (CDK7 with cyclin H; enzyme activity, inhibitor, ADP detection; 10 µM): 30.8%

CNC(=O)[C@@]12C[C@@H]1[C@@H](n1cnc3c(NCc4cccc(Cl)c4)nc(C#Cc4ccc(Cl)s4)nc31)[C@H](O)[C@@H]2O
inhibition (SLC6A2; ligand displacement, radioligand; 10 µM): 85%

Cc1cc(NS(=O)(=O)c2ccc(N=NN(C)O)cc2)no1
inhibition (AMY2; enzyme activity, inhibitor; 120 µg/mL): 21.1%

COc1cc(CNC(=O)c2sc3nc(C)cc(C)c3c2N)cc(OC)c1OC
inhibition (NT5E; enzyme activity, inhibitor; 10 µM): -23%

CCCN(O)N=Nc1ccc(S(=O)(=O)Nc2nccs2)cc1
inhibition (AMY2; enzyme activity, inhibitor; 60 µg/mL): 21.1%

c1cc2cc(C3=NCCN3)ccc2cc1C1=NCCN1
inhibition (Rac GTPase-activating protein 1 (Homo sapiens, UniProt Q9H0H5); enzyme activity, inhibitor, ADP detection; 20 µM): 36.6%

CCOC(=O)c1ccc(NC(=O)c2sc3nc(C)cc(-c4ccccc4)c3c2N)cc1
inhibition (NT5E; enzyme activity, inhibitor; 10 µM): -21%

NC/C(=C\F)COc1cccc(Cn2c(=S)[nH]c(=O)c3[nH]cnc32)c1
inhibition (Diamine oxidase [copper-containing] (AOC1, Homo sapiens, UniProt P19801); enzyme activity, inhibitor; 0.3333 µM): 3.97%

Cc1cc(F)cc2c(CCC(=O)N[C@@H]3C(=O)NC[C@H]3O)c(-c3ccc(F)cc3)[nH]c12
inhibition (Kappa-type opioid receptor (OPRK1, Homo sapiens, UniProt P41145); cell-free assay; 10 µM): 9%

C=C(C)[C@@H]1CC[C@]2(C)CC[C@]3(C)[C@H](CC[C@@H]4[C@@]5(C)CC[C@H](O)C(C)(C)[C@@H]5CC[C@]43C)[C@@H]12
inhibition (CDK7 with cyclin H; enzyme activity, inhibitor, ADP detection; 10 µM): 18.4%

CCCn1cnc2ccc(-c3ccc(NC(=O)CNCC)nc3)cc2c1=O
inhibition (PIP4K2C; binding, competition with immobilised ligand; 0.5 µM): 68%

CN1CC(Oc2cnc(C#N)cc2-c2ccn3nc(NC(=O)C4CC4)cc3c2)C1
inhibition (Protein kinase C zeta type (PRKCZ, Homo sapiens, UniProt Q05513); enzyme activity, inhibitor; 1 µM): 5%

Cc1cc(-c2ccccc2)nc2sc(C(=O)NCc3ccccc3)c(N)c12
inhibition (NT5E; enzyme activity, inhibitor; 10 µM): 4%

O=C(NCc1cc(O)c(O)c(Br)c1)c1cccs1
inhibition (rep main protease; enzyme activity, inhibitor, FRET; 10 µM): 45.9%

Cc1noc(NS(=O)(=O)c2ccc(N=NN(C)O)cc2)c1C
inhibition (AMY2; enzyme activity, inhibitor; 180 µg/mL): 57.9%

C=C(C)[C@@H]1CC[C@]2(CO)CC[C@]3(C)[C@H](CC[C@@H]4[C@@]5(C)CC[C@H](O)C(C)(C)[C@@H]5CC[C@]43C)[C@@H]12
inhibition (CDK7 with cyclin H; enzyme activity, inhibitor, ADP detection; 10 µM): 18.6%

COCCOCCOCCNC(=O)CSc1nc(C)cc(-c2ccccc2)c1C#N
inhibition (NT5E; enzyme activity, inhibitor; 10 µM): 13%

C[C@H]1O[C@H](O[C@H]2[C@H](O)[C@@H](O)[C@@H](O[C@H]3[C@H](O)[C@@H](O)C(O)O[C@@H]3CO)O[C@@H]2CO)[C@H](O)[C@@H](O)[C@@H]1N[C@H]1C=C(CO)[C@@H](O)[C@H](O)[C@H]1O (stereo partly shown)
inhibition (AMY2; enzyme activity, inhibitor; 60 µg/mL): 48.9%

O=C(Nc1ccccc1F)c1ccc2c(c1)C(=O)NC2=O
inhibition (Amine oxidase [flavin-containing] B (MAOB, Homo sapiens, UniProt P27338); enzyme activity, inhibitor; 1 µM): 31.4%

Cc1cc(C)c2c(N)c(C(=O)Nc3cccnc3)sc2n1
inhibition (NT5E; enzyme activity, inhibitor; 10 µM): -23%

O=S(=O)(Nc1nccs1)c1ccc(N=NN(O)c2ccccc2)cc1
inhibition (AMY2; enzyme activity, inhibitor; 20 µg/mL): 5.26%

CCNC(=O)c1cnn(-c2ccc(-n3ccc(Cl)c(Cl)c3=O)cc2)c1
inhibition (Short transient receptor potential channel 3 (TRPC3, Homo sapiens, UniProt Q13507); ion current, inhibitor, patch clamp; HEK293; 10 µM): > 90%

CCCN(O)N=Nc1ccc(S(=O)(=O)Nc2onc(C)c2C)cc1
inhibition (AMY2; enzyme activity, inhibitor; 60 µg/mL): 36.8%

CCCCC(=O)Nc1ccc(-c2ccc3ncn(CC4CCC4)c(=O)c3c2)cn1
inhibition (PIP4K2C; binding, competition with immobilised ligand; 0.5 µM): 99.6%

Cc1cc(O)c(-c2ccc([C@@H](C)CN(C)C)cc2)c2c1[nH]c(=O)c1sccc12
inhibition (Diacylglycerol kinase alpha (DGKA, Homo sapiens, UniProt P23743); enzyme activity, inhibitor; 0.1 µM): 3.35%

O=C(NCc1cc(O)c(O)c(Br)c1)c1ccco1
inhibition (rep papain-like protease; enzyme activity, inhibitor, FRET; 10 µM): 91.5%

Cc1noc(NS(=O)(=O)c2ccc(N=NN(O)c3ccccc3)cc2)c1C
inhibition (AMY2; enzyme activity, inhibitor; 180 µg/mL): 52.6%

CCCCCc1c2c(cc(O)c1C(=O)O)OC(=O)c1c(cc(OC)cc1C(=O)CCCC)O2
inhibition (SLC22A11; transporter uptake, inhibitor; 25 µM): 82.7%

O=C(NCc1cc(O)c(O)c(Br)c1)c1ccc(Cl)s1
inhibition (rep main protease; enzyme activity, inhibitor, FRET; 10 µM): 107%

CCN(O)N=Nc1ccc(S(=O)(=O)Nc2onc(C)c2C)cc1
inhibition (AMY2; enzyme activity, inhibitor; 180 µg/mL): 42.1%

Cc1cc(-c2ccccc2)nc(SCC(=O)Nc2ccccc2)c1C#N
inhibition (NT5E; enzyme activity, inhibitor; 10 µM): 71%

O=C(NCc1cc(O)c(O)c(Br)c1)c1cccc2ccccc12
inhibition (rep papain-like protease; enzyme activity, inhibitor, FRET; 10 µM): 23.5%

Excerpt of the above:
Cc1cc(F)cc2c(CCC(=O)N[C@@H]3C(=O)NC[C@H]3O)c(-c3ccc(F)cc3)[nH]c12
inhibition (Kappa-type opioid receptor (OPRK1, Homo sapiens, UniProt P41145); cell-free assay; 10 µM): 9%

C=C(C)[C@@H]1CC[C@]2(C)CC[C@]3(C)[C@H](CC[C@@H]4[C@@]5(C)CC[C@H](O)C(C)(C)[C@@H]5CC[C@]43C)[C@@H]12
inhibition (CDK7 with cyclin H; enzyme activity, inhibitor, ADP detection; 10 µM): 18.4%

CCCn1cnc2ccc(-c3ccc(NC(=O)CNCC)nc3)cc2c1=O
inhibition (PIP4K2C; binding, competition with immobilised ligand; 0.5 µM): 68%

CN1CC(Oc2cnc(C#N)cc2-c2ccn3nc(NC(=O)C4CC4)cc3c2)C1
inhibition (Protein kinase C zeta type (PRKCZ, Homo sapiens, UniProt Q05513); enzyme activity, inhibitor; 1 µM): 5%
